Measured values collected from several papers.
Lines come from different studies, so protocols differ. Numbers after ± are the reported error.
MUSK: Muscle, skeletal receptor tyrosine-protein kinase (MUSK, Homo sapiens, UniProt O15146)
Sequence of UniProt O15146 (whole entry, looked up): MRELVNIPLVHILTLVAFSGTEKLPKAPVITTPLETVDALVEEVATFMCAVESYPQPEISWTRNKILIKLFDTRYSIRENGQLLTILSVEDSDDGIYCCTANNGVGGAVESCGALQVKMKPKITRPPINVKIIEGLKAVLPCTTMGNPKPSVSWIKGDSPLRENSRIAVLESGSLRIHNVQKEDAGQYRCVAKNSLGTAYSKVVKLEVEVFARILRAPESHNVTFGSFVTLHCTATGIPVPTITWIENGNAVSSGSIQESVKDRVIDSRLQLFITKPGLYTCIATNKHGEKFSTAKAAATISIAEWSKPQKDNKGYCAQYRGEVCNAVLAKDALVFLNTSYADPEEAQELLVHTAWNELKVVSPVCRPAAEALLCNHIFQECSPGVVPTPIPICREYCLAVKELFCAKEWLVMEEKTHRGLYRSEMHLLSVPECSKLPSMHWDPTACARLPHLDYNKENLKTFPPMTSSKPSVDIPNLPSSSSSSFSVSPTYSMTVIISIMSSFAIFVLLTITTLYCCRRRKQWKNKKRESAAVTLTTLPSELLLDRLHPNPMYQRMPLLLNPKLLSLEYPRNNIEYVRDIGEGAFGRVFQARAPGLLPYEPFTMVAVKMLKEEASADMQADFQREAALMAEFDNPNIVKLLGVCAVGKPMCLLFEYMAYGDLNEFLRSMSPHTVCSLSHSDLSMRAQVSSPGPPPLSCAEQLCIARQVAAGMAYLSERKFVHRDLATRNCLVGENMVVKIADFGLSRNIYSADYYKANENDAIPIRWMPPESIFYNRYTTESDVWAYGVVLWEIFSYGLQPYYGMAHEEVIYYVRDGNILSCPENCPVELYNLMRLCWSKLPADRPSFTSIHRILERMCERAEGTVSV
ZAP70: Tyrosine-protein kinase ZAP-70 (ZAP70, Homo sapiens, UniProt P43403)
Sequence of UniProt P43403 (whole entry, looked up): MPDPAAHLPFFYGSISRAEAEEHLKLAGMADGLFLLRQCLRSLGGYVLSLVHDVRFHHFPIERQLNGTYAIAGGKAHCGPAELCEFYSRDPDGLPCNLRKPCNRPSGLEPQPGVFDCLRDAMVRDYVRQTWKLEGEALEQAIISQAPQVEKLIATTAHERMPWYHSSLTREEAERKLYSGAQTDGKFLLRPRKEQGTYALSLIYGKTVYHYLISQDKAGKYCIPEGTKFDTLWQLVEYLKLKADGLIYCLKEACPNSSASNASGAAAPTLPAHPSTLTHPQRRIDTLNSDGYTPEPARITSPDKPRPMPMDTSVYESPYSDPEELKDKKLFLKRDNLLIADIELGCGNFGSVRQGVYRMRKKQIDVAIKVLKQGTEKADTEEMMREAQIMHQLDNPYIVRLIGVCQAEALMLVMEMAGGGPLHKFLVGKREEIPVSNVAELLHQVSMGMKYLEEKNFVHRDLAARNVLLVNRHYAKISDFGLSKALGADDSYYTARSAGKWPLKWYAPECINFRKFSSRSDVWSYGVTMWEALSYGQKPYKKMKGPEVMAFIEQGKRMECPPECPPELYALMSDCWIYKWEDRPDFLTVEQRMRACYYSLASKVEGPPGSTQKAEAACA
Sequence of UniProt O60331 (whole entry, looked up): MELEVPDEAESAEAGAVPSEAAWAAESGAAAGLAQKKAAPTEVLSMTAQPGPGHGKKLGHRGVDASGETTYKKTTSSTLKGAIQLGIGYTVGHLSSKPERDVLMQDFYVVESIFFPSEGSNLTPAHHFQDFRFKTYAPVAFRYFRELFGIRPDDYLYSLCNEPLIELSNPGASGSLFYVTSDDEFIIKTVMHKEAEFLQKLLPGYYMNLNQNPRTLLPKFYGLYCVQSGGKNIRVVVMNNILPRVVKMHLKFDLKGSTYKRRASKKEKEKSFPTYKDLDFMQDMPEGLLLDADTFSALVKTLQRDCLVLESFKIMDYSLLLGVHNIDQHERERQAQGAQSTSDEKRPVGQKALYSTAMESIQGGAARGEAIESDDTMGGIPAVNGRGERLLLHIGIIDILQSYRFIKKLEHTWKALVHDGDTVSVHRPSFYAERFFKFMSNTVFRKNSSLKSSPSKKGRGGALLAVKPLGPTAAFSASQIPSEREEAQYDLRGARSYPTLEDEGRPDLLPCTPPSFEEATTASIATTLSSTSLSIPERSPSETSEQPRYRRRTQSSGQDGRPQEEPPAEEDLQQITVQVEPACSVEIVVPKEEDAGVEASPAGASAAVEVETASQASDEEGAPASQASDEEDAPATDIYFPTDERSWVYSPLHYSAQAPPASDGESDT
Sequence of UniProt P05164 (whole entry, looked up): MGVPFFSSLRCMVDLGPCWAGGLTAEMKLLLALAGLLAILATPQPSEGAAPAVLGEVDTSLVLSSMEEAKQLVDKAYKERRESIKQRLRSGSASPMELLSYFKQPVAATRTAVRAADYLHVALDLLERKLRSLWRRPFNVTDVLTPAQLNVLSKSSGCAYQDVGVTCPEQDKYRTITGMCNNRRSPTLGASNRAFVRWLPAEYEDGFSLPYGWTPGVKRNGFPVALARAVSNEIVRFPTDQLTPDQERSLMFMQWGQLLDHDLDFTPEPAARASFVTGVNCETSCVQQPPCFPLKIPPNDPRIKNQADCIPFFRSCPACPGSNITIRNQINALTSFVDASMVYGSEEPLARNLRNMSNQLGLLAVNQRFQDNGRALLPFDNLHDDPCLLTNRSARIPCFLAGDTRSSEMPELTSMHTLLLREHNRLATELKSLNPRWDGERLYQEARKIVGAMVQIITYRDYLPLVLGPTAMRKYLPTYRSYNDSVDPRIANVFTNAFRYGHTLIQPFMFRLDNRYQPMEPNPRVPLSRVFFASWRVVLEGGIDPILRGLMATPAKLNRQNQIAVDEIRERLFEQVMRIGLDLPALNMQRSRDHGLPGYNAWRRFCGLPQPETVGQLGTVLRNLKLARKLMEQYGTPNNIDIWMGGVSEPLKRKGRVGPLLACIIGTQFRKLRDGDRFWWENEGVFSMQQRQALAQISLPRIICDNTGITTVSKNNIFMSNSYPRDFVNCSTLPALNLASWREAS
Sequence of UniProt P45983 (whole entry, looked up): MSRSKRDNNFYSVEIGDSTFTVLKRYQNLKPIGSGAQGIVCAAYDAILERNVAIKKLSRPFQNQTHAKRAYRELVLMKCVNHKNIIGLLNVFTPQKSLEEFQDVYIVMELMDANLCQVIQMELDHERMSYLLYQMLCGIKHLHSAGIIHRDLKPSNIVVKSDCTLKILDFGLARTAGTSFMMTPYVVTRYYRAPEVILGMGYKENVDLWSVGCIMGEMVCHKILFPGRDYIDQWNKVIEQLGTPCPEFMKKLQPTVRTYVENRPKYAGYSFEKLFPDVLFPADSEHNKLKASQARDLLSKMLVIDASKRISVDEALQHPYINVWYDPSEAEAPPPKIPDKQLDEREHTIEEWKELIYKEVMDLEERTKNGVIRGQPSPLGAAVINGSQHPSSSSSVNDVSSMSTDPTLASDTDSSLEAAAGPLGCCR
Sequence of UniProt P51451 (whole entry, looked up): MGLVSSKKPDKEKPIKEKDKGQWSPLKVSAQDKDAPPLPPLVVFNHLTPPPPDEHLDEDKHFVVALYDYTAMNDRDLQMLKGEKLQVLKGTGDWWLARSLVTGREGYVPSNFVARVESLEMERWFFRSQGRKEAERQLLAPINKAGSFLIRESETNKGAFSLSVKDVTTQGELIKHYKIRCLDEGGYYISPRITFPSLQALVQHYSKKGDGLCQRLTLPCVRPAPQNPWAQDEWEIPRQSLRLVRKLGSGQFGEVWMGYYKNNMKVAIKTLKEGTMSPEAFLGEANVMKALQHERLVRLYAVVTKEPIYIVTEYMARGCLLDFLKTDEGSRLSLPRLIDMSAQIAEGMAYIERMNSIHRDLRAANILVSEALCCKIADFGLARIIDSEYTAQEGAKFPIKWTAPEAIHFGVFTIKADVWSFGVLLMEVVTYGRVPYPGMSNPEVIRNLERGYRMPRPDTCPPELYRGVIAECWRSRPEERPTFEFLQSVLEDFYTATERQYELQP
Sequence of UniProt Q6P5Z2 (whole entry, looked up): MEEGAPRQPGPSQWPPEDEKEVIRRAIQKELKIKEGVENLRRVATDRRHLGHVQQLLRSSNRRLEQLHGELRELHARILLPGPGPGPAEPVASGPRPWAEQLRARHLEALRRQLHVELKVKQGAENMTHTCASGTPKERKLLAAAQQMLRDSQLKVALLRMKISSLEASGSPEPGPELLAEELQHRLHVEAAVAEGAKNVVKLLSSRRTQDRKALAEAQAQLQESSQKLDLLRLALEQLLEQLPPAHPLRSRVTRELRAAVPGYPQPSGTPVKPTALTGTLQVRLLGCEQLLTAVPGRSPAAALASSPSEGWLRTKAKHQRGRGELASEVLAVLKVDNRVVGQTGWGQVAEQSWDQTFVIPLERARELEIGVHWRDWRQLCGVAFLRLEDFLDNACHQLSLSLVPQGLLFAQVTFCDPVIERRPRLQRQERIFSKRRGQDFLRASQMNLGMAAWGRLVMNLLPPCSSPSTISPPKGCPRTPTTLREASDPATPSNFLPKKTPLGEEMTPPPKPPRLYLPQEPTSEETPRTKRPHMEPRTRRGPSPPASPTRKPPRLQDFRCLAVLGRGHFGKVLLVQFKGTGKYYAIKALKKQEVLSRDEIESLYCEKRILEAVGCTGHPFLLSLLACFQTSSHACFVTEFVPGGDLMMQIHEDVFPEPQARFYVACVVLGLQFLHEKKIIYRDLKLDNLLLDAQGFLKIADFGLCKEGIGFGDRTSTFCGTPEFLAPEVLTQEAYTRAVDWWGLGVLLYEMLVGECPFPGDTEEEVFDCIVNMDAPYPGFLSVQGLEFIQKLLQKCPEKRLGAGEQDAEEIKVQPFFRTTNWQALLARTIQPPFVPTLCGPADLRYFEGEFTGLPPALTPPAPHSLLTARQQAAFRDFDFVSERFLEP

SMILES = C=CC(=O)N1CCC[C@@H](n2nc(-c3ccc(Oc4ccccc4)cc3)c3c(N)ncnc32)C1; tested on = MUSK; conditions = 1 µM; measurement = remaining activity; result = 103%
SMILES = Nc1ccc(/N=N/c2ccccc2)c(N)n1; tested on = THP-1; test = pyroptotic LDH release; conditions = 2 µM, 40 min, added: LPS then nigericin; measurement = inhibition; result = -4.13%
SMILES = C=CC(=O)N1CCCN(C(=O)c2cc(Sc3cnc(NC(=O)C4CC4)s3)c(C)cc2OC)C[C@H]1C; tested on = ZAP70; test = kinase activity, inhibitor; conditions = concentration not given; scale = relative to: control; measurement = remaining activity; result = 59%
SMILES = O=C(NC1CCC1)c1ccc2nc(-c3cccc(NS(=O)(=O)NCCN4CCCCC4)c3)cn2c1; tested on = Serine/threonine-protein kinase OSR1 (OXSR1, Homo sapiens, UniProt O95747); test = enzyme activity; conditions = 10 µM; measurement = remaining activity; result = 100%
SMILES = COc1cc(N2CCN(C)CC2)ccc1Nc1nc(N)n(C(=O)NCc2c(Cl)cccc2Cl)n1; tested on = Mitogen-activated protein kinase kinase kinase 2 (MAP3K2, Homo sapiens, UniProt Q9Y2U5); test = enzyme activity; conditions = 10 µM; scale = relative to: control; measurement = remaining activity; result = 16%
SMILES = COc1cc(/C=C/C(=O)CC(=O)/C=C/c2ccc(O)c(OC)c2)ccc1O; tested on = AMPK; conditions = 1 µM; scale = relative to: DMSO; measurement = remaining activity; result = 93%
SMILES = CC(C)OCCn1c(=S)[nH]c(=O)c2[nH]ccc21; tested on = Myeloperoxidase (MPO, Homo sapiens, UniProt P05164); test = H2O2 consumption, H2O2-specific electrode; conditions = 10 µM; scale = relative to: control; measurement = remaining activity; result = 7.97%
SMILES = CNc1ncc2c(/C=C/C(=O)N3CCC(OC)CC3)nn(Cc3cccc(C(F)(F)F)c3)c2n1; tested on = MUSK; test = kinase activity, inhibitor; conditions = 1 µM; scale = relative to: untreated control; measurement = remaining activity; result = 91%
SMILES = Cc1cc(NC(=O)c2cccc(NC(=O)/C=C/CN(C)C)c2)ccc1Nc1nccc(-c2cccnc2)n1; tested on = Mitogen-activated protein kinase 8, phosphorylated (MAPK8, Homo sapiens, UniProt P45983); test = enzyme activity after dialysis, inhibitor; conditions = 10 µM, 2 days, unit not given; scale = relative to: no inhibitor; measurement = remaining activity; result = 0.049
SMILES = Cc1cc(Nc2cc(N3CCN(C)CC3)nc(Sc3ccc(NC(=O)C4CC4)cc3)n2)[nH]n1; tested on = Calcium/calmodulin-dependent protein kinase type IV (CAMK4, Homo sapiens, UniProt Q16566); test = kinase activity, KinaseProfiler; conditions = 0.03 µM, species human; scale = relative to: control; measurement = remaining activity; result = 107%
SMILES = COC[C@H](NC(=O)c1cnc(C)s1)C(=O)N[C@@H](COC)C(=O)N[C@@H](Cc1ccccc1)C(=O)[C@@]1(C)CO1; tested on = THP-1; test = pyroptotic LDH release; conditions = 2 µM, 40 min, added: LPS then nigericin; measurement = inhibition; result = -12%
SMILES = Nc1ncnc2occ(-c3ccc(NC(=O)Nc4cc(C(F)(F)F)ccc4F)cc3)c12; tested on = Transient receptor potential cation channel subfamily M member 6 (TRPM6, Homo sapiens, UniProt Q9BX84); test = enzyme activity, inhibitor; conditions = 20 µM; measurement = remaining activity; result = 100%
SMILES = O=C(O)c1ccc(Nc2ncc3c(n2)-c2ccc(Cl)cc2C(c2c(F)cccc2F)=NC3)cc1; tested on = PRAK(h); test = kinase activity; conditions = 1 µM; measurement = remaining activity; result = 110%
SMILES = CC#CC(=O)N1CCC[C@H]1c1nc(-c2ccc(C(=O)Nc3ccccn3)cc2)c2c(N)nccn12; tested on = Tyrosine-protein kinase Blk (BLK, Homo sapiens, UniProt P51451); test = kinase activity, inhibitor, HotSpot radiometric; conditions = 100 nM, added: ATP 10 µM; measurement = remaining activity; result = 95 ± 1.2%
SMILES = C[C@@H](Oc1ccc(S(C)(=O)=O)cc1C(=O)N1C[C@@H]2C[C@]2(c2cc(C(F)(F)F)on2)C1)C(F)(F)F; tested on = Sodium- and chloride-dependent glycine transporter 1 (SLC6A9, Homo sapiens, UniProt P48067); test = glycine uptake, inhibitor, [3H]glycine uptake; conditions = 0.002 µM, log concentration 2, added: [3H]glycine, 3.5 mg/mL methyl-β-cyclodextrin; scale = relative to: no inhibitor; measurement = remaining activity; result = 56.5%
SMILES = COc1ccc(F)cc1C(=O)NCc1ccc(-c2nn([C@@H](C)C(F)(F)F)c(N)c2C(N)=O)cc1; tested on = Serine/threonine-protein kinase N3 (PKN3, Homo sapiens, UniProt Q6P5Z2); test = kinase activity, inhibitor, HotSpot radiometric; conditions = 1000 nM, added: ATP at Km; measurement = remaining activity; result = 98.2 ± 1%
SMILES = O=C1NC(=O)/C(=C/c2ccc(-c3ccc(F)cc3O)o2)S1; tested on = Dual specificity tyrosine-phosphorylation-regulated kinase 3 (DYRK3, Homo sapiens, UniProt O43781); test = enzyme activity; conditions = 10 µM; measurement = remaining activity; result = 18%
SMILES = COc1cc(Nc2ncc3c(n2)-c2ccc(Cl)cc2C(c2c(F)cccc2OC)=NC3)ccc1C(=O)O; tested on = CSF1R; test = kinase activity; conditions = 1 µM; measurement = remaining activity; result = 52%
SMILES = C=CC(=O)N1CCC([C@@H]2CCNc3c(C(N)=O)c(-c4ccc(Oc5ccccc5)cc4)nn32)CC1; tested on = Inhibitor of nuclear factor kappa-B kinase subunit epsilon (IKBKE, Homo sapiens, UniProt Q14164); test = kinase activity, inhibitor, HotSpot radiometric; conditions = 100 nM, added: ATP 10 µM; measurement = remaining activity; result = 93.3 ± 0.4%
SMILES = Cn1c(=O)n(-c2ccc(C(C)(C)C#N)cc2)c2c3cc(-c4cnc5ccccc5c4)ccc3ncc21; tested on = AMPK; test = enzyme activity; conditions = 10 µM; measurement = remaining activity; result = 99%
SMILES = COc1cc(F)ccc1-c1ncnc(Nc2cccc(C[S@](C)(=N)=O)c2)n1; tested on = MUSK; test = kinase activity; conditions = 10 µM, added: 10 µM ATP; measurement = remaining activity; result = 53%
SMILES = COc1cc(-c2cncc3c2CN(C)Cc2cc(N4CCNCC4)ccc2-3)cc(OC)c1OC; tested on = ZAP70; test = kinase activity; conditions = 1 µM, human enzyme, added: ATP 10 µM; scale = relative to: DMSO control; measurement = remaining activity; result = 108%
SMILES = NC/C(=C\F)COc1cccc(Cn2c(=S)[nH]c(=O)c3[nH]cnc32)c1; tested on = Peroxidasin homolog (PXDN, Homo sapiens, UniProt Q92626); test = Amplex UltraRed; conditions = 5 µM, mean of replicates; scale = relative to: control; measurement = remaining activity; result = 69.5%
SMILES = CC(C)C(=O)Nc1n[nH]c2cc(-c3cccc(NS(=O)(=O)C4CC4)c3)ccc12; tested on = Phosphatidylinositol 4-phosphate 5-kinase type-1 gamma (PIP5K1C, Homo sapiens, UniProt O60331); test = ADP-Glo; conditions = 508 pM; scale = relative to: DMSO; measurement = remaining activity; result = 100%

A few entries again:
SMILES = C=CC(=O)N1CCC([C@@H]2CCNc3c(C(N)=O)c(-c4ccc(Oc5ccccc5)cc4)nn32)CC1; tested on = Inhibitor of nuclear factor kappa-B kinase subunit epsilon (IKBKE, Homo sapiens, UniProt Q14164); test = kinase activity, inhibitor, HotSpot radiometric; conditions = 100 nM, added: ATP 10 µM; measurement = remaining activity; result = 93.3 ± 0.4%
SMILES = Cn1c(=O)n(-c2ccc(C(C)(C)C#N)cc2)c2c3cc(-c4cnc5ccccc5c4)ccc3ncc21; tested on = AMPK; test = enzyme activity; conditions = 10 µM; measurement = remaining activity; result = 99%
SMILES = COc1cc(F)ccc1-c1ncnc(Nc2cccc(C[S@](C)(=N)=O)c2)n1; tested on = MUSK; test = kinase activity; conditions = 10 µM, added: 10 µM ATP; measurement = remaining activity; result = 53%
SMILES = COc1cc(-c2cncc3c2CN(C)Cc2cc(N4CCNCC4)ccc2-3)cc(OC)c1OC; tested on = ZAP70; test = kinase activity; conditions = 1 µM, human enzyme, added: ATP 10 µM; scale = relative to: DMSO control; measurement = remaining activity; result = 108%
